# Measured values pooled from the literature.
# Compare with care: the assays were run in different laboratories. Values joined by “and” are separate records of one study, mostly repeats; a detail may differ. ± gives the spread as reported.
# Chain of UniProt Q9H3N8 (whole entry, looked up): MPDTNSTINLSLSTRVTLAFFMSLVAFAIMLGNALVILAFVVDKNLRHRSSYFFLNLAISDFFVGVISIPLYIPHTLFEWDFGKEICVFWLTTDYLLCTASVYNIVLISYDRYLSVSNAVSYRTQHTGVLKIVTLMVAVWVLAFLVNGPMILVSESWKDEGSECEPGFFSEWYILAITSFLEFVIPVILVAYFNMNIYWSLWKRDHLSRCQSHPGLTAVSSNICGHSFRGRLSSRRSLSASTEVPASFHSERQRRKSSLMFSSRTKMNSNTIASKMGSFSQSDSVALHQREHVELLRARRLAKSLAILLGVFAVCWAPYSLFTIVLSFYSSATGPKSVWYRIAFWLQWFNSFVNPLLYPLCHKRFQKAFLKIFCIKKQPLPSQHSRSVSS
# Chain of UniProt Q9NYL2 (whole entry, looked up): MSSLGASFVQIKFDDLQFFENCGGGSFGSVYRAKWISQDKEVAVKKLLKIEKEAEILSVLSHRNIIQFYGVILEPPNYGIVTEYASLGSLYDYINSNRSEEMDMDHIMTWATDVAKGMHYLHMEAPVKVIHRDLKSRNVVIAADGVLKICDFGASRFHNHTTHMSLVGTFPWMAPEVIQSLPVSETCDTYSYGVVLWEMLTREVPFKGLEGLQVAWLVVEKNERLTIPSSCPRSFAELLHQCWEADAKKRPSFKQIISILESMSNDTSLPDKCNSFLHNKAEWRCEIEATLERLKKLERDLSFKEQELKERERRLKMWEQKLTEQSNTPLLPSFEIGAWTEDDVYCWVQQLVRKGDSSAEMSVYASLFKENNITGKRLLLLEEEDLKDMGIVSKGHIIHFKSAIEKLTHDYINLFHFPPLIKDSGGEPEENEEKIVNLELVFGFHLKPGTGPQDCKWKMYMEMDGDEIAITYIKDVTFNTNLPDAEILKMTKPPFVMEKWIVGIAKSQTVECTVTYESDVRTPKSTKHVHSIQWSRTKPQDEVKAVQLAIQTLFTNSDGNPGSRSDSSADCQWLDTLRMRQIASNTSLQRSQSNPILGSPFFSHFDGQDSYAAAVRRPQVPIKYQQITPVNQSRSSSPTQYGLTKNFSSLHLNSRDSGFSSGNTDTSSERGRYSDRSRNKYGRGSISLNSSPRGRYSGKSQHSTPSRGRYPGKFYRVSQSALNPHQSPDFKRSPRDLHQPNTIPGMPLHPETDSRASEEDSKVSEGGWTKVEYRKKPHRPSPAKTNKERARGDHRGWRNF
Compound,target or system,test,system,setting,how to read,measurement,value
N=C(N)NCCC[C@@H](NC(=O)[C@H](N)Cc1c[nH]c2ccccc12)C(=O)N[C@H](CCCCN)C(=O)N[C@H](Cc1c[nH]c2ccccc12)C(=O)N[C@H](CCCNC(=N)N)C(=O)N[C@H](CCCCN)C(=O)N[C@H](Cc1c[nH]c2ccccc12)C(=O)N[C@H](CCCNC(=N)N)C(=O)N[C@H](CCCCN)C(=O)N[C@H](Cc1c[nH]c2ccccc12)C(=O)N[C@H](CCCNC(=N)N)C(=O)N[C@H](CCCCN)C(N)=O,,,"mouse, heart","intravenous, 30 mg/kg single dose, 7 days",,organ index,0.605
CSCC[C@H](NC(=O)CNC(=O)[C@H](CCCCN)NC(=O)[C@H](CC(C)C)NC(=O)[C@@H]1CCCN1C(=O)[C@H](CO)NC(=O)[C@H](Cc1c[nH]cn1)NC(=O)[C@H](Cc1c[nH]c2ccccc12)NC(=O)[C@H](CCCNC(=N)N)NC(=O)[C@H](CC(C)C)NC(=O)[C@H](CCCNC(=N)N)NC(=O)[C@H](Cc1c[nH]c2ccccc12)NC(=O)[C@H](CS)NC(=O)CCCCCNC(=O)CN1CCN(CC(=O)O)CCN(CC(=O)O)CCN(CC(=O)O)CC1)C(=O)O [copper-64 labelled],,,"male C57BL/6J mice, B16-F10 tumour, intestinal lymph node","intravenous, 1.85 MBq, 18 h",,tissue uptake,0.99 %ID/g
CSCC[C@H](N)C(=O)N[C@@H](C)C(=O)N[C@@H](Cc1c[nH]c2ccccc12)C(=O)N[C@@H](Cc1c[nH]cn1)C(=O)N[C@@H](CC(=O)O)C(=O)N[C@@H](CC(=O)O)C(=O)N[C@@H](CCC(=O)O)C(=O)N[C@@H](CCC(=O)O)C(=O)N[C@@H](Cc1ccccc1)C(=O)N[C@@H](C)C(=O)N[C@@H](CCCNC(=N)N)C(=O)N[C@@H](CCCNC(=N)N)C(=O)N[C@@H](CCCNC(=N)N)C(=O)N[C@@H](CCCNC(=N)N)C(=O)NCCCCCC(=O)NCCCCC(NC(=O)CCCCCNC(=O)[C@H](CCCNC(=N)N)NC(=O)[C@H](CCCNC(=N)N)NC(=O)[C@H](CCCNC(=N)N)NC(=O)[C@H](CCCNC(=N)N)NC(=O)[C@H](C)NC(=O)[C@H](Cc1ccccc1)NC(=O)[C@H](CCC(=O)O)NC(=O)[C@H](CCC(=O)O)NC(=O)[C@H](CC(=O)O)NC(=O)[C@H](CC(=O)O)NC(=O)[C@H](Cc1c[nH]cn1)NC(=O)[C@H](Cc1c[nH]c2ccccc12)NC(=O)[C@H](C)NC(=O)[C@@H](N)CCSC)C(=O)NCCCCC(NC(=O)C(CCCCNC(=O)CCCCCNC(=O)[C@H](CCCNC(=N)N)NC(=O)[C@H](CCCNC(=N)N)NC(=O)[C@H](CCCNC(=N)N)NC(=O)[C@H](CCCNC(=N)N)NC(=O)[C@H](C)NC(=O)[C@H](Cc1ccccc1)NC(=O)[C@H](CCC(=O)O)NC(=O)[C@H](CCC(=O)O)NC(=O)[C@H](CC(=O)O)NC(=O)[C@H](CC(=O)O)NC(=O)[C@H](Cc1c[nH]cn1)NC(=O)[C@H](Cc1c[nH]c2ccccc12)NC(=O)[C@H](C)NC(=O)[C@@H](N)CCSC)NC(=O)CCCCCNC(=O)[C@H](CCCNC(=N)N)NC(=O)[C@H](CCCNC(=N)N)NC(=O)[C@H](CCCNC(=N)N)NC(=O)[C@H](CCCNC(=N)N)NC(=O)[C@H](C)NC(=O)[C@H](Cc1ccccc1)NC(=O)[C@H](CCC(=O)O)NC(=O)[C@H](CCC(=O)O)NC(=O)[C@H](CC(=O)O)NC(=O)[C@H](CC(=O)O)NC(=O)[C@H](Cc1c[nH]cn1)NC(=O)[C@H](Cc1c[nH]c2ccccc12)NC(=O)[C@H](C)NC(=O)[C@@H](N)CCSC)C(N)=O (stereo partly drawn),,,"mouse C57BL/6 female, spine","3 h, radioiodinated peptide",baseline: total radioactivity,tissue distribution,7.37% and 6.12%
COc1cnc2cccc(N3CCc4c(cc(Cn5ccnc5)cc4-c4cn(C)nc4C(F)(F)F)C3=O)c2c1,,,"BALB/c nude mice, MV4-11 xenograft","intraperitoneal, 100 mg/kg, day 21",,body weight,23.2 g and 20.7 g and 24.8 g and 25.8 g and 23.7 g and 22.6 g and 22.5 g
Cc1cc(C(=O)Nc2nc3cccc(C)c3n2[C@H]2CCCCN(C(=O)/C=C/CN(C)C)C2)ccn1,Trypanosoma brucei brucei,,2T1 CLK1 overexpressing,"0.0195 µM, compound pretreated",baseline: maximum,survival,157% and 167% and 153% and 136%
CC(=O)CCC1C(=O)NC(C(C)C)C(=O)NC(Cc2cc(O)cc(F)c2)C(=O)N2CCCC(N2)C(=O)OC(C(C)=CC=CC(=O)N2CCCCO2)CC=CC=CC(O)C(C)C1O (stereo not drawn),,,"CD-1 mice, serum","oral, 50 mg/kg repeated, day 7",,total bilirubin,4.4 µM
CN(C)[C@H]1C[C@@]23CC[C@@]4(O2)C(=CC[C@]2(C)[C@@H](c5ccc6ccncc6c5)CC[C@H]24)C=C3[C@@H](O)[C@@H]1O,"MAP3K20 (Homo sapiens, UniProt Q9NYL2)","ATP probe labelling, inhibitor, KiNativ profiling",,0.1 µM,,inhibition,-4.6%
O=C1NC2(CC2)COc2ncc(F)cc2[C@H]2COCCN2c2ccn3ncc1c3n2,,,"Sprague-Dawley rat, male, heart","oral, 5 mg/kg/day, 4 weeks dosing, end of recovery",,organ-to-body weight ratio,0.299 ± 0.014%
CS(C)(=O)=Nc1ccc(-c2ccc(-c3nc4cc(O[C@@H]5CO[C@H]6[C@@H]5OC[C@H]6O)[nH]c4cc3F)cc2)cc1,"HRH4 (Homo sapiens, UniProt Q9H3N8)","calcium signal, antagonist",,10 µM,,inhibition,-16%
CS(=O)(=O)c1cc(Cl)cc(-c2cc(Cl)c(Cl)cc2Cl)c1Cl,,ultrafiltration,cow milk whey,100 nM nominal in whole milk,,final permeate concentration,1.44 nM
COc1ccccc1-c1n[nH]c2nc(N[C@H]3CC[C@H](NS(=O)(=O)CC(C)C)CC3)ncc12,LINJ.27.0510,bead competition pull-down,Leishmania extract,1.25 µM,baseline: vehicle,relative captured amount,0.92
C#Cc1c(F)ccc2cc(O)cc(-c3ncc4c(N5CC6CCC(C5)N6C(=O)OC(C)OC(=O)C(C)CC)nc(OC[C@@]56CCCN5C[C@H](F)C6)nc4c3F)c12 (stereo partly drawn),,chemical stability,simulated intestinal fluid,"1 µM, 30 min",,compound remaining,98.5%
CC(C)(C)C(=O)OCOP(=O)(OCOC(=O)C(C)(C)C)C1CCCN(O)C1=O (stereo not drawn),T47D,,,,,log TGI,-4.75 log M
CC[C@H](C)[C@H](NC(=O)[C@H](CCCCN)NC(=O)CNC(=O)[C@H](CC(C)C)NC(=O)[C@H](Cc1ccccc1)NC(=O)[C@H](CCCCN)NC(=O)[C@H](CO)NC(=O)[C@H](Cc1ccccc1)NC(=O)[C@H](Cc1c[nH]c2ccccc12)NC(=O)[C@H](CCC(N)=O)NC(=O)[C@@H](NC(=O)[C@H](Cc1ccccc1)NC(=O)CCCCCNC(=O)CN1CCN(CC(=O)O)CCN(CC(=O)O)CCN(CC(=O)O)CC1)C(C)C)C(=O)N[C@@H](CCC(=O)O)C(=O)N1CCC[C@H]1C(=O)N[C@@H](CC(=O)O)C(=O)N[C@H](C(=O)N[C@@H](CO)C(=O)N[C@@H](CCC(N)=O)C(=O)N[C@H](C(=O)N[C@@H](CCC(N)=O)C(=O)N[C@@H](CC(=O)O)C(=O)N1CCC[C@H]1C(=O)N[C@@H](CC(N)=O)C(=O)N[C@@H](CC(=O)O)C(=O)N[C@@H](CCC(N)=O)C(=O)N[C@@H](Cc1ccc(O)cc1)C(=O)N[C@@H](CCC(=O)O)C(=O)N1CCC[C@H]1C(=O)N[C@@H](Cc1ccccc1)C(=O)O)C(C)C)C(C)C [copper-64 labelled],,dynamic PET,"mouse both sexes, CT26 tumour, checkpoint inhibitor-treated, tumour","intravenous, 100 µCi/mouse, 630 s",,SUVmean,4.73 SUV
CC1(C)C(=O)N(c2ccc(C#N)c(C(F)(F)F)c2)C(=S)N1c1ccc(C(=O)O)c(F)c1,,,"male human, plasma","oral, 80 mg, single dose, fasted",,Tmax,96 h
CCCCCCCCCCCCCCCC(=O)N[C@@H](CCC(=O)NCCOCCOCCC(=O)NCCOCCOCCC(=O)NCCCC[C@H](NC(=O)[C@H](CC(=O)O)NC(=O)[C@H](CC(C)C)NC(=O)[C@H](Cc1ccc(O)cc1)NC(=O)[C@H](CCCCN)NC(=O)[C@H](CO)NC(=O)[C@H](Cc1ccc(O)cc1)NC(=O)[C@H](CC(=O)O)NC(=O)[C@H](CO)NC(=O)[C@@H](NC(=O)[C@H](Cc1ccccc1)NC(=O)[C@@H](NC(=O)CNC(=O)[C@H](CCC(N)=O)NC(=O)[C@@H](CO)NC(=O)[C@@H](N)Cc1c[nH]cn1)[C@@H](C)O)[C@@H](C)O)C(=O)N[C@@H](CCCNC(=N)N)C(=O)N[C@@H](CCCNC(=N)N)C(=O)N[C@@H](C)C(=O)N[C@@H](CCC(N)=O)C(=O)N[C@@H](CC(=O)O)C(=O)N[C@@H](Cc1ccccc1)C(=O)N[C@H](C(=O)N[C@@H](CCC(N)=O)C(=O)N[C@@H](Cc1c[nH]c2ccccc12)C(=O)N[C@@H](CC(C)C)C(=O)N[C@@H](CC(C)C)C(=O)N[C@@H](CC(N)=O)C(=O)N[C@H](C(=O)NCC(=O)NCC(=O)N1CCC[C@H]1C(=O)N[C@@H](CO)C(=O)N[C@@H](CO)C(=O)NCC(=O)N[C@@H](C)C(=O)N1CCC[C@H]1C(=O)N1CCC[C@H]1C(=O)N1CCC[C@H]1C(=O)N[C@@H](CO)C(N)=O)[C@@H](C)O)C(C)C)C(=O)O,,,"rhesus monkey, male","subcutaneous, 60 µg/kg once daily, 28 days",,creatinine,46.6 ± 8.4 µmol/L
COc1ccccc1-c1n[nH]c2nc(NC3CCN(C(=O)Cc4ccc(F)cc4F)CC3)ncc12,LMJF.01.0320,bead binding competition,Leishmania donovani extract,10 µM,baseline: vehicle,relative abundance,1.01
CC(C)N1CCCCC1C(=O)NC(Cc1ccc(-c2ccccc2)cc1)B(O)O (stereo not drawn),,,male Sprague-Dawley rats,"oral, 1 mg/kg",,oral bioavailability,78%

# Repeated from above:
Compound,target or system,test,system,setting,how to read,measurement,value
O=C1NC2(CC2)COc2ncc(F)cc2[C@H]2COCCN2c2ccn3ncc1c3n2,,,"Sprague-Dawley rat, male, heart","oral, 5 mg/kg/day, 4 weeks dosing, end of recovery",,organ-to-body weight ratio,0.299 ± 0.014%
CCCCCCCCCCCCCCCC(=O)N[C@@H](CCC(=O)NCCOCCOCCC(=O)NCCOCCOCCC(=O)NCCCC[C@H](NC(=O)[C@H](CC(=O)O)NC(=O)[C@H](CC(C)C)NC(=O)[C@H](Cc1ccc(O)cc1)NC(=O)[C@H](CCCCN)NC(=O)[C@H](CO)NC(=O)[C@H](Cc1ccc(O)cc1)NC(=O)[C@H](CC(=O)O)NC(=O)[C@H](CO)NC(=O)[C@@H](NC(=O)[C@H](Cc1ccccc1)NC(=O)[C@@H](NC(=O)CNC(=O)[C@H](CCC(N)=O)NC(=O)[C@@H](CO)NC(=O)[C@@H](N)Cc1c[nH]cn1)[C@@H](C)O)[C@@H](C)O)C(=O)N[C@@H](CCCNC(=N)N)C(=O)N[C@@H](CCCNC(=N)N)C(=O)N[C@@H](C)C(=O)N[C@@H](CCC(N)=O)C(=O)N[C@@H](CC(=O)O)C(=O)N[C@@H](Cc1ccccc1)C(=O)N[C@H](C(=O)N[C@@H](CCC(N)=O)C(=O)N[C@@H](Cc1c[nH]c2ccccc12)C(=O)N[C@@H](CC(C)C)C(=O)N[C@@H](CC(C)C)C(=O)N[C@@H](CC(N)=O)C(=O)N[C@H](C(=O)NCC(=O)NCC(=O)N1CCC[C@H]1C(=O)N[C@@H](CO)C(=O)N[C@@H](CO)C(=O)NCC(=O)N[C@@H](C)C(=O)N1CCC[C@H]1C(=O)N1CCC[C@H]1C(=O)N1CCC[C@H]1C(=O)N[C@@H](CO)C(N)=O)[C@@H](C)O)C(C)C)C(=O)O,,,"rhesus monkey, male","subcutaneous, 60 µg/kg once daily, 28 days",,creatinine,46.6 ± 8.4 µmol/L
COc1ccccc1-c1n[nH]c2nc(N[C@H]3CC[C@H](NS(=O)(=O)CC(C)C)CC3)ncc12,LINJ.27.0510,bead competition pull-down,Leishmania extract,1.25 µM,baseline: vehicle,relative captured amount,0.92
